{"data": "Assay results of several laboratories", "note": "Each line is one published result; not all experiments were run side by side."}
{"Structure (SMILES)": "Cc1ccc(F)c2cc(C(=O)N[C@@H]3CCC[C@H](N4CC[C@H](N(C)S(C)(=O)=O)C4)C3)[nH]c12", "system": "CD1 mouse", "conditions": "oral, 30 mg/kg", "Cmax": "667 ng/mL"}
{"Structure (SMILES)": "OB(O)CSc1nc2ccccc2n1Cc1ccc(C(F)(F)F)cc1C(F)(F)F", "system": "mouse, thigh", "conditions": "subcutaneous, 25 mg/kg", "Cmax": "28000 ng/g"}
{"Structure (SMILES)": "N#C[C@@]1(n2ccc(N)nc2=O)O[C@H](CO)[C@@H](O)[C@H]1O", "system": "CD-1 mouse, plasma", "conditions": "intravenous, 15 mg/kg, mean", "Cmax": "13800 ng/mL"}
{"Structure (SMILES)": "O=c1c2cc(Cl)c(CO)cc2[nH]c(=S)n1Cc1cncnc1", "system": "mouse, plasma", "conditions": "oral, 50 mg/kg", "Cmax": "142 ng/mL"}
{"Structure (SMILES)": "CN[C@H]1CC[C@@H](c2ccc(Cl)c(Cl)c2)c2ccccc21", "system": "CD-1 mouse, male, lung", "conditions": "intraperitoneal, 30 mg/kg", "Cmax": "43500 ng/g"}
{"Structure (SMILES)": "O=C1c2c(O)c(=O)ccn2N([C@@H]2c3ccccc3SCc3c2ccc(F)c3F)[C@@H]2COCCN12", "system": "BALB/c mouse", "conditions": "subcutaneous, 0.125 mg/kg q12h", "Cmax": "9.27 ng/mL"}
{"Structure (SMILES)": "Cc1ccccc1C(=O)NN=Cc1ccc(O)c(Br)c1", "system": "C3H/HeN mouse IN model, plasma", "conditions": "intraperitoneal, 0.8 mg/kg", "Cmax": "213 ng/mL"}
{"Structure (SMILES)": "Nc1ccc2cc3ccc(N)cc3nc2c1", "system": "male CD-1 mouse, lung", "conditions": "intravenous, 15 mg/kg as hydrochloride", "Cmax": "43800 ng/mL"}
{"Structure (SMILES)": "NC(=O)c1cccc(-c2cc(OC(=O)NC3CCCCC3)ccc2O)c1", "system": "mouse, plasma", "conditions": "oral, 10 mg/kg", "Cmax": "123 ng/mL"}
{"note": "For quick reference, copied from above:"}
{"Structure (SMILES)": "O=C1c2c(O)c(=O)ccn2N([C@@H]2c3ccccc3SCc3c2ccc(F)c3F)[C@@H]2COCCN12", "system": "BALB/c mouse", "conditions": "subcutaneous, 0.125 mg/kg q12h", "Cmax": "9.27 ng/mL"}
